{"data": "Results pooled from the literature", "ache": "Acetylcholinesterase (ache, Electrophorus electricus, UniProt O42275)", "note": "Lines come from different studies, so protocols differ. Values joined by “and” are separate records of one study, mostly repeats; a detail may differ. ± marks the error that the study gave.", "sequence of UniProt O42275 (whole entry, looked up)": "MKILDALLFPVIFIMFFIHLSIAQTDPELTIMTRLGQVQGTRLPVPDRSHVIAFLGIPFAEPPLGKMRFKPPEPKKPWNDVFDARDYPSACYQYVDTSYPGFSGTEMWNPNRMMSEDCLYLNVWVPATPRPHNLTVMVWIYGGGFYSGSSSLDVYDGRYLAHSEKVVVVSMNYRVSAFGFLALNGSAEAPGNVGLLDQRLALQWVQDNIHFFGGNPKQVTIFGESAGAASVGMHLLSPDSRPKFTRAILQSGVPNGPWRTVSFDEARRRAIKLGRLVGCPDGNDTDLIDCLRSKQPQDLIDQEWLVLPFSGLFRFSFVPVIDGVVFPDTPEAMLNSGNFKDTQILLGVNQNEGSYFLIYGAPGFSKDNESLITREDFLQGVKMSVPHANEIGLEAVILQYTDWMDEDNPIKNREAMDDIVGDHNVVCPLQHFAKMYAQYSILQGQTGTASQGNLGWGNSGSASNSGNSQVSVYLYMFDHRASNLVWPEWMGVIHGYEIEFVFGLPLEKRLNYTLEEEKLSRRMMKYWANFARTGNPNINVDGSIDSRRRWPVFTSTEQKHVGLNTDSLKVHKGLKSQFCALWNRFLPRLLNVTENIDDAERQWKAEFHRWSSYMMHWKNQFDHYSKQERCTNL", "sequence of UniProt Q9Y2J8 (whole entry, looked up)": "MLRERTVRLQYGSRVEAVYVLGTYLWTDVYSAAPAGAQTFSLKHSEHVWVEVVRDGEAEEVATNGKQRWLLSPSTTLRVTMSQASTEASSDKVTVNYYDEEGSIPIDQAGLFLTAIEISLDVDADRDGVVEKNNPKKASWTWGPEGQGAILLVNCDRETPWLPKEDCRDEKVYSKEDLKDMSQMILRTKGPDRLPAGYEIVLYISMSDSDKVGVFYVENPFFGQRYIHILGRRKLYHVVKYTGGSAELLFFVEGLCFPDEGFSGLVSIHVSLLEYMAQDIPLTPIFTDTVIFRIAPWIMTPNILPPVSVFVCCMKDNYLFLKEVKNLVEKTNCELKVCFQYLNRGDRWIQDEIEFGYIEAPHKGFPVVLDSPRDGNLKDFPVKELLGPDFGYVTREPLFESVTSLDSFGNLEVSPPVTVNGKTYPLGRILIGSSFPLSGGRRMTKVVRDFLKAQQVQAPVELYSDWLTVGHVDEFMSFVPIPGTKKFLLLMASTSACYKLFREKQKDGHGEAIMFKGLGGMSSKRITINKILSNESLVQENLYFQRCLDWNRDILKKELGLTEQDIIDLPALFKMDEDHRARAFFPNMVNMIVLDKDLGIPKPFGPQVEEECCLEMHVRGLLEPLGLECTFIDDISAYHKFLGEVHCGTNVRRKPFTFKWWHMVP", "sequence of UniProt Q704Y3 (whole entry, unmodified, looked up)": "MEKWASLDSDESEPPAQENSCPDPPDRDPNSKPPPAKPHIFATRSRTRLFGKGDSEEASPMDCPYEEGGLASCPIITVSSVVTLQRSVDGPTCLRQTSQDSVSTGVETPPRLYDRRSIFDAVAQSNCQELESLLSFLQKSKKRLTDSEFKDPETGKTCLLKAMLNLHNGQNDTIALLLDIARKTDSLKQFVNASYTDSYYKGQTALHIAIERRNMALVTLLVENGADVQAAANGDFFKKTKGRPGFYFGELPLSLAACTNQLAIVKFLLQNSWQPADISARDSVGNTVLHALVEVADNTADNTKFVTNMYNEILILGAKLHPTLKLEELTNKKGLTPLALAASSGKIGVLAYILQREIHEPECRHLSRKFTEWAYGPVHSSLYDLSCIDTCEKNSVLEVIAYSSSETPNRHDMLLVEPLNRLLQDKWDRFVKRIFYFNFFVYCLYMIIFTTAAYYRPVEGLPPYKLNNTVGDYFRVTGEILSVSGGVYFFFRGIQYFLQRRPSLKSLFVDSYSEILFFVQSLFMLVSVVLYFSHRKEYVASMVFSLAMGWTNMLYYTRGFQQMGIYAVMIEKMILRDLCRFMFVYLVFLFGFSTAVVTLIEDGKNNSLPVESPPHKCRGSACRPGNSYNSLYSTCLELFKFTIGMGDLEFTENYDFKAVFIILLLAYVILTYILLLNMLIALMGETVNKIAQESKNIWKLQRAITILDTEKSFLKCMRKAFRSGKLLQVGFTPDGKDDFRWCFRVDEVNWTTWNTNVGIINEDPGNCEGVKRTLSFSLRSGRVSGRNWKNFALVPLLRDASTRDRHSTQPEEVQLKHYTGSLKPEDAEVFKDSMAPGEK", "sequence of UniProt Q86Y07 (whole entry, looked up)": "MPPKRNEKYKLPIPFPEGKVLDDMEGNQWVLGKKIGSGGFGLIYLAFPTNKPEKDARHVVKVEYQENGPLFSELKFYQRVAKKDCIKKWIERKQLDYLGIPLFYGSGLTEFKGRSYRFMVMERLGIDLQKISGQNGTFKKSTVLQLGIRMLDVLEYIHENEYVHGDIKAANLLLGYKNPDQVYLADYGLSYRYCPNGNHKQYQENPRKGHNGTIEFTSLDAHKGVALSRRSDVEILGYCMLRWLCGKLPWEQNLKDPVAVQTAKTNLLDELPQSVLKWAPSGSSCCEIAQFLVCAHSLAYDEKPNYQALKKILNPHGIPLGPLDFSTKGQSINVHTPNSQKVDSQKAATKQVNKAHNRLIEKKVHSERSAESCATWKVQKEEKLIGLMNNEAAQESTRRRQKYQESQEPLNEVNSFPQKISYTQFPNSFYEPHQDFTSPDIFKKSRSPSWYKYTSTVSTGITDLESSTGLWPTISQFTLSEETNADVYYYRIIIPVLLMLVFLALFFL", "sequence of UniProt P41145 (whole entry, looked up)": "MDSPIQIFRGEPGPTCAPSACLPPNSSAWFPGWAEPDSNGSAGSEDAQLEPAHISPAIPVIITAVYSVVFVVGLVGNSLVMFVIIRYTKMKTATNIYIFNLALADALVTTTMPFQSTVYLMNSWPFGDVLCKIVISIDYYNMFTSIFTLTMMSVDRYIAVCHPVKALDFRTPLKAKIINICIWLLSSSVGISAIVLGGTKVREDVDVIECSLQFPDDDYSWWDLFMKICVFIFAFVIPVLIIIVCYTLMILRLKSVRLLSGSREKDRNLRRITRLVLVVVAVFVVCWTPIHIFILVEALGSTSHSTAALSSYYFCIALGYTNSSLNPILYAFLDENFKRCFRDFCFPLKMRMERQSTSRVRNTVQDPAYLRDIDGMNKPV", "sequence of UniProt P30550 (whole entry, looked up)": "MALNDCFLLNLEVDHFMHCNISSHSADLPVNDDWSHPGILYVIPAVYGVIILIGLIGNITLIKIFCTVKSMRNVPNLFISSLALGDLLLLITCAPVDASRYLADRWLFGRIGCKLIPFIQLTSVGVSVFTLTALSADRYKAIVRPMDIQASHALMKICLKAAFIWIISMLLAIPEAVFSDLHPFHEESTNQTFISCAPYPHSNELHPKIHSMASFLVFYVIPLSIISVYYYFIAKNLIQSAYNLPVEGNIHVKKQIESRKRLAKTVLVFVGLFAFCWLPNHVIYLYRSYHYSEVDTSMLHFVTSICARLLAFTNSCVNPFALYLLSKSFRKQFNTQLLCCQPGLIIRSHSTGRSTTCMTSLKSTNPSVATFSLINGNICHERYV", "sequence of UniProt P53779 (whole entry, looked up)": "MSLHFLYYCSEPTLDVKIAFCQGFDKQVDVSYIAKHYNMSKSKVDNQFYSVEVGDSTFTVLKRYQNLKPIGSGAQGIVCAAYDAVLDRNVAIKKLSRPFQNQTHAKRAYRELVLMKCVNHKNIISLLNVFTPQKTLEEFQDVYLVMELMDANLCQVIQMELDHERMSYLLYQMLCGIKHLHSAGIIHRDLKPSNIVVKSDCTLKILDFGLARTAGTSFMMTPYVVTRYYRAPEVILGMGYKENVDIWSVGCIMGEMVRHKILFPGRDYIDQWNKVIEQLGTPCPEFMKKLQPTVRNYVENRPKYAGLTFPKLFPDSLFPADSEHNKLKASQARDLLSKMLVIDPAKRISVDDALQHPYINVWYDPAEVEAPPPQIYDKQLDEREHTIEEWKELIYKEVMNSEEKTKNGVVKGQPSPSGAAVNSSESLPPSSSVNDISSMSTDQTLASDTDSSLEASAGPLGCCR", "sequence of UniProt O75604 (whole entry, looked up)": "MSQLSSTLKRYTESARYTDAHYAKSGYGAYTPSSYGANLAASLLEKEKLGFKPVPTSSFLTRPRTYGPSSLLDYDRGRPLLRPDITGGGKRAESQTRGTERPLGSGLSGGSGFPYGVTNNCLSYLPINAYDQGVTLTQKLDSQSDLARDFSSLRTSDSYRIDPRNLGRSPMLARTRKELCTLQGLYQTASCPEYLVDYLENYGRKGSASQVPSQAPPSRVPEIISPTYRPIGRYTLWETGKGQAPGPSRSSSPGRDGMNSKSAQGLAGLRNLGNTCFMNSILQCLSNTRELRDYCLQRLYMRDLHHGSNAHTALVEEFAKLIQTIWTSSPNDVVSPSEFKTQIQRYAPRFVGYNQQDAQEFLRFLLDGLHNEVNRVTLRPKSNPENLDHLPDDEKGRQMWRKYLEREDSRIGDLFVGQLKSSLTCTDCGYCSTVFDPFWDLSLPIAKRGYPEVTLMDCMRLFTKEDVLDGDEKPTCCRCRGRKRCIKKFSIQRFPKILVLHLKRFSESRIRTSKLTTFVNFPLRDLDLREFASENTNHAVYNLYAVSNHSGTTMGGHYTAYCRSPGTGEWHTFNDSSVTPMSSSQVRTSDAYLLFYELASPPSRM", "sequence of UniProt P16233 (whole entry, looked up)": "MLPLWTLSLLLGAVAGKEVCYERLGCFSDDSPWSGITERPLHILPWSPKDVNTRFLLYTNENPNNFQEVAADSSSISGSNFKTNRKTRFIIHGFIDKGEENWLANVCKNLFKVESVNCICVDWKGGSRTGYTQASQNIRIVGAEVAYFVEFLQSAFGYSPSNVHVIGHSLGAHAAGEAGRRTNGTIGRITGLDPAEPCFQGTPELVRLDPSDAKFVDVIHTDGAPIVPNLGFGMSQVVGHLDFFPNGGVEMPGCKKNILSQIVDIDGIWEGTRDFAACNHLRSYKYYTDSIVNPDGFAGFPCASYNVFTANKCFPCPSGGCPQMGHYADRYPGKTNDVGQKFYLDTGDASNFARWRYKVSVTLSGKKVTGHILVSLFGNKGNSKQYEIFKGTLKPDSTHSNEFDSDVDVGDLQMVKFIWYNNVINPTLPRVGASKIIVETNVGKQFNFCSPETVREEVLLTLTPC"}
{"SMILES": "CC(C)C(=O)N1CCN(C(=O)Cc2ccc(Cl)c(Cl)c2)[C@H]2[C@H]1COC[C@@H]2N1CCCC1 (single isomer, unassigned)", "target": "OPRK1 (Homo sapiens, UniProt P41145)", "test": "agonist", "conditions": "0.3333 h", "endpoint": "Emax", "result": "122%"}
{"SMILES": "CN(C)[C@H]1C[C@@]23CC[C@@]4(O2)C(=CC[C@]2(C)[C@@H](c5ccc6ccncc6c5)CC[C@H]24)C=C3[C@@H](O)[C@@H]1O", "target": "ILK (Homo sapiens, UniProt Q13418)", "test": "probe labelling, inhibitor, KiNativ ATP probe MS", "test system": "native lysate", "conditions": "1 µM", "endpoint": "inhibition", "result": "3.5%"}
{"SMILES": "O=C1NC(=O)c2c1c1cc(F)c[n+]3c1c1c2c2cc(O)ccc2[n]1[Ru-4]312([N]=C=S)[S+]3CC[S+]1CC[S+]2CC3 (stereo not shown)", "target": "VRK2 (Homo sapiens, UniProt Q86Y07)", "test": "enzyme activity", "conditions": "100 nM, human enzyme, with: 10 µM ATP", "scale": "reference: untreated", "endpoint": "remaining activity", "result": "63%"}
{"SMILES": "CCCCC/C=C\\C/C=C\\C/C=C\\C/C=C\\CCCC(=O)NCCc1ccc(O)c(O)c1", "target": "Trpv1 (Mus musculus, UniProt Q704Y3, E571S)", "test": "ion current, agonist, whole-cell patch clamp", "conditions": "E571S", "scale": "reference: 3 mM 2-APB", "endpoint": "maximal open probability", "result": "0.6 ± 0.02"}
{"SMILES": "Cc1ccc(N2CC3CCC(C2)N3C)cc1C(=O)N[C@H](C)c1cc(-c2cnn(C)c2)nc2ccccc12", "target": "USP2 (Homo sapiens, UniProt O75604)", "test": "enzyme activity", "conditions": "10 µM, 0.5 h", "endpoint": "remaining activity", "result": "98.7%"}
{"SMILES": "CCc1nc2ccc(C(=O)NCCN3CCOCC3)cn2c1N(C)C(=O)C1CCCCC1", "target": "ache", "test": "inhibitor", "conditions": "5 µM", "endpoint": "activity", "result": "active"}
{"SMILES": "O=C(O)C(/C=C/c1ccc(Cl)cc1)=N\\Nc1nc(-c2ccc(Cl)cc2)cs1", "target": "ache", "test": "Ellman", "scale": "reference: IC50 BChE over IC50 AChE", "endpoint": "selectivity index", "result": 10.4}
{"SMILES": "CS(C)(=O)=Nc1ccc(-c2ccc(-c3nc4cc(O[C@@H]5CO[C@H]6[C@@H]5OC[C@H]6O)[nH]c4cc3F)cc2)cc1", "target": "GRPR (Homo sapiens, UniProt P30550)", "test": "calcium signal, antagonist", "conditions": "10 µM", "endpoint": "inhibition", "result": "42%"}
{"SMILES": "O=C1c2ccccc2C(=O)c2c1ccc(O)c2O", "target": "PNLIP (Homo sapiens, UniProt P16233)", "test": "enzyme activity, inhibitor, fluorescence", "conditions": "50 µM", "endpoint": "remaining activity", "result": "4.89%"}
{"SMILES": "CC(C)[C@H]1NC(=O)C[C@H]2/C=C/CCSSC[C@@H](NC1=O)C(=O)N[C@H](Cc1cccc3ccccc13)C(=O)NCC(=O)O2", "target": "WNK1 (Homo sapiens, UniProt Q9H4A3)", "test": "enzyme activity, inhibitor", "conditions": "10 µM", "endpoint": "inhibition", "result": "0.9%"}
{"SMILES": "CCOC(=O)[C@@H]1Cc2c(cc([N+](=O)[O-])cc2[N+](=O)[O-])[C@H](O)[C@]12C(=O)Nc1ccc(Br)cc12", "target": "MAPK10 (Homo sapiens, UniProt P53779)", "test": "KINOMEscan", "conditions": "100 nM", "scale": "reference: DMSO control", "endpoint": "remaining binding", "result": "75%"}
{"SMILES": "OB(O)c1ccc(OCc2ccccc2)nc1F", "target": "Chymotrypsinogen A (Bos taurus, UniProt P00766)", "test": "pNA substrate hydrolysis", "scale": "reference: Ki protease over Ki AmpC", "endpoint": "selectivity ratio", "result": 928}
{"SMILES": "N[C@H](C(=O)N1CCCC1)C1CCN(c2nccc3c(-c4ncc(Cl)cc4Cl)cccc23)CC1", "target": "PADI2 (Homo sapiens, UniProt Q9Y2J8)", "test": "enzyme activity", "conditions": "0.0983 µM, low-affinity site, with: Ca2+ 0.25 mM", "endpoint": "kcat", "result": "0.336 s⁻¹ and 0.379 s⁻¹"}
{"note": "Excerpt of the above:"}
{"SMILES": "CC(C)[C@H]1NC(=O)C[C@H]2/C=C/CCSSC[C@@H](NC1=O)C(=O)N[C@H](Cc1cccc3ccccc13)C(=O)NCC(=O)O2", "target": "WNK1 (Homo sapiens, UniProt Q9H4A3)", "test": "enzyme activity, inhibitor", "conditions": "10 µM", "endpoint": "inhibition", "result": "0.9%"}
